Published values pooled from the literature.
A part holds a random share of what one study measured. Changes are numbered by the printed parent chain.

Study 1
Target: CCNE2, cyclin fold, Cln2 fusion (human)
Technique: yeast growth competition, sequencing
Sample: yeast
Notes: weak parent motif
Reference: not given
Direction: higher = stronger binding
Starting sequence: PKMYT1 docking peptide (human); SFEPRNLLSLFED
Substitution	normalised enrichment score
S1C	0.227
D13Q	0.76
P4E	-0.279
E3N	-0.806

Study 2
Target: RNA binding protein fox-1 homolog 2, RRM domain, GST-SBP tag (RBFOX2, Homo sapiens, UniProt O43251-10, residues 100-194)
Technique: RNA Bind-n-Seq
Molecule type: RNA
Sample: in vitro
Concentration: 365 nM
Notes: natural RNA segment, single round, ends assumed
Reference: no-protein control
Direction: higher = stronger binding
Constant ends, left off below: GGGAGUUCUACAGUCCGACGAUC … UGGAAUUCUCGGGUGCCAA
Target sequence (chain): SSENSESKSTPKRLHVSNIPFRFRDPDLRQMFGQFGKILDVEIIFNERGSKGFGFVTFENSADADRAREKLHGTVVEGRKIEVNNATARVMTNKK
Strand	RBNS enrichment (R)
CAGUUUUUAUAGUUUUCCACAACCAAGCCACCCUUCACAGAUAAAAUAUGAUGCUGGCAUGGCAAUCAGACCAAAGCACUGUCCCCAAUUGUUGUCUUAACUAUGACUAG	0.397
CUGUAGUUUUGAAGUCAUCCGUUUUUUGAUGACAAAGUACCUGUGGAAAACCAGGGAUAUUUUUUUUUCCUCAACUUCUUCUCUUUACUCCCUACCCCUCUCCUCCCUAA	1.63
GUGGUUCUAUUCUGAGCACCCCUGUUGCCUCUGACGACCCCCCCCCCACCAAAGGGAAGCAGAGAAGCCCCUGGCCAUGCACAUUGAGUAUGAUGAGCAAAAGGCCAGAA	0.256
GCAAUAACAAGGUUUUAAAAGAUAAUAAUAAAGAGGAAACACGACUAUUGGACAAAGUAUUUAUGUAAUUAUUUGAUAUCUCUUGUAAAUAGGUGGAAUAUGACUGCUCA	0.457
GUCUGAAAGGUGAGGGUGGCCUGACCUGGGCCUCUCCCUGCCCCUCCAUAGGUGGGUUUGUAGGGUCUUGUGUUGCUUCUGGUCUCUCCAGGCUUGGCUGAGACGGACGG	0.463
GUUAGUUCCUCCCUCUUCCCGAUGUUCAUCUUCUAAGUAAGGGACAGCAUGCUACAGGACAGACCUGCUCUGGAAGCCUGUCAUAGUAAGGCUGGCGUGGCACGUUUGGG	0.853
GGACACGUAGAGAAAGGACAUUCAUGACAUCCCUGUGGUGUGGUUAAUGUGCGACGUGUCGCCCAAGCUCUGCCCUAAGAAGCUUCUUAGUGACUCCAGCCACCUGAGAG	0.187

Study 3
Target: Interferon regulatory factor 3, full length, phosphomimetic (IRF3, Homo sapiens, UniProt Q14653, residues 1-427, S386D/S396D/S398D/S402D/T404D/S405D)
Technique: protein-binding microarray
Molecule type: double-stranded DNA, one strand shown
Sample: in vitro
Concentration: 2540 nM top
Notes: 60-bp whole probe
Added: salmon DNA 0.4 mg/ml
Reference: random background probes
Direction: higher = stronger binding
Constant ends, left off below: GCCTAGCAC … GTCTTGATTCGCTTGACGCTGCTG
Target sequence (chain): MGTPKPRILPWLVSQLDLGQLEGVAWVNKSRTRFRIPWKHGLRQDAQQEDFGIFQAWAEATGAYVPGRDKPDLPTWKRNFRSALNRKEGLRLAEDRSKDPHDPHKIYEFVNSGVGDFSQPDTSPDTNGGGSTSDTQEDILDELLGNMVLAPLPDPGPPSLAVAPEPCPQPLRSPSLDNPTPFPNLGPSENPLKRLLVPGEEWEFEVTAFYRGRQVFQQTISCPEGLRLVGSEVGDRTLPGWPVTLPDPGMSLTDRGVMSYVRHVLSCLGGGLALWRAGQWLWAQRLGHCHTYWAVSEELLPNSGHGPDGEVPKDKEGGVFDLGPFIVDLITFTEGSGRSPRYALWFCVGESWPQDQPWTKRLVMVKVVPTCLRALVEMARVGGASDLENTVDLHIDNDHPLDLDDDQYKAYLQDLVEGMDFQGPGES
Strand	fitted relative affinity [z-score]
TGTACTCTCTCCATGTGTTTGTGCTAG	0.311
CTTCTCCTCTAGGTTCTCTGAGTGCTA	3.34
GGTGCTCTGCAGCTCAGGCAGTGCTAG	-0.691
AGCCAGGCAACCTATGGCCTGTGCTAG	-1.35
TTCGTTTTGTGTCTGGGCATGTGCTAG	0.948
TGCTTCCTCTTTTTTGTTCCGTGCTAG	1.15
AATGAGGCACTGAGAGCAGAGTGCTAG	-0.879
GACGACCTGAGTATCGAGACGTGCTAG	-0.336

Single results of other studies
Substance	target	assay	system	setting	how to read	measurement	result
PhoQ, residues 284 288 289 292 302 303 SQSLSM	PhoP, residues 12 14 15 18 19 AQALL (Escherichia coli, UniProt P23836)	Sort-seq, refers to: YFP reporter	E. coli	PhoQ-PhoP variant library, added: 10 µM Mg2+	reference: high Mg2+ state, higher = stronger signaling	fold induction	9.83

A few entries again (study 2):
Strand	RBNS enrichment (R)
CUGUAGUUUUGAAGUCAUCCGUUUUUUGAUGACAAAGUACCUGUGGAAAACCAGGGAUAUUUUUUUUUCCUCAACUUCUUCUCUUUACUCCCUACCCCUCUCCUCCCUAA	1.63
GUUAGUUCCUCCCUCUUCCCGAUGUUCAUCUUCUAAGUAAGGGACAGCAUGCUACAGGACAGACCUGCUCUGGAAGCCUGUCAUAGUAAGGCUGGCGUGGCACGUUUGGG	0.853
